Results from different studies.
Each line is one published result; not all experiments were run side by side. ± marks the error that the study gave. Values after ≈ are worked out from the molar mass of the structure shown.
UniProt Q8NCC3, sequence (whole entry, looked up): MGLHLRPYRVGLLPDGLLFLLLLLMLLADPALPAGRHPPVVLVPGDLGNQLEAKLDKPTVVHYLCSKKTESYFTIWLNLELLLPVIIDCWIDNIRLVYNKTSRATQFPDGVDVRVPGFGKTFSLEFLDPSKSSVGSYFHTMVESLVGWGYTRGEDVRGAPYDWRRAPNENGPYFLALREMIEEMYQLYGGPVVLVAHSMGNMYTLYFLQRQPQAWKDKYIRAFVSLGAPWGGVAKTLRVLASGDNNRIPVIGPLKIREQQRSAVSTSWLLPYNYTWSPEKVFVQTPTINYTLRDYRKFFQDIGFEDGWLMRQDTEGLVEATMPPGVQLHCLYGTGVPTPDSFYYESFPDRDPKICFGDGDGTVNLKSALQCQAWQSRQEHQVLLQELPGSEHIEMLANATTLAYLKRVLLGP
UniProt Q9H4A3, sequence (whole entry, looked up): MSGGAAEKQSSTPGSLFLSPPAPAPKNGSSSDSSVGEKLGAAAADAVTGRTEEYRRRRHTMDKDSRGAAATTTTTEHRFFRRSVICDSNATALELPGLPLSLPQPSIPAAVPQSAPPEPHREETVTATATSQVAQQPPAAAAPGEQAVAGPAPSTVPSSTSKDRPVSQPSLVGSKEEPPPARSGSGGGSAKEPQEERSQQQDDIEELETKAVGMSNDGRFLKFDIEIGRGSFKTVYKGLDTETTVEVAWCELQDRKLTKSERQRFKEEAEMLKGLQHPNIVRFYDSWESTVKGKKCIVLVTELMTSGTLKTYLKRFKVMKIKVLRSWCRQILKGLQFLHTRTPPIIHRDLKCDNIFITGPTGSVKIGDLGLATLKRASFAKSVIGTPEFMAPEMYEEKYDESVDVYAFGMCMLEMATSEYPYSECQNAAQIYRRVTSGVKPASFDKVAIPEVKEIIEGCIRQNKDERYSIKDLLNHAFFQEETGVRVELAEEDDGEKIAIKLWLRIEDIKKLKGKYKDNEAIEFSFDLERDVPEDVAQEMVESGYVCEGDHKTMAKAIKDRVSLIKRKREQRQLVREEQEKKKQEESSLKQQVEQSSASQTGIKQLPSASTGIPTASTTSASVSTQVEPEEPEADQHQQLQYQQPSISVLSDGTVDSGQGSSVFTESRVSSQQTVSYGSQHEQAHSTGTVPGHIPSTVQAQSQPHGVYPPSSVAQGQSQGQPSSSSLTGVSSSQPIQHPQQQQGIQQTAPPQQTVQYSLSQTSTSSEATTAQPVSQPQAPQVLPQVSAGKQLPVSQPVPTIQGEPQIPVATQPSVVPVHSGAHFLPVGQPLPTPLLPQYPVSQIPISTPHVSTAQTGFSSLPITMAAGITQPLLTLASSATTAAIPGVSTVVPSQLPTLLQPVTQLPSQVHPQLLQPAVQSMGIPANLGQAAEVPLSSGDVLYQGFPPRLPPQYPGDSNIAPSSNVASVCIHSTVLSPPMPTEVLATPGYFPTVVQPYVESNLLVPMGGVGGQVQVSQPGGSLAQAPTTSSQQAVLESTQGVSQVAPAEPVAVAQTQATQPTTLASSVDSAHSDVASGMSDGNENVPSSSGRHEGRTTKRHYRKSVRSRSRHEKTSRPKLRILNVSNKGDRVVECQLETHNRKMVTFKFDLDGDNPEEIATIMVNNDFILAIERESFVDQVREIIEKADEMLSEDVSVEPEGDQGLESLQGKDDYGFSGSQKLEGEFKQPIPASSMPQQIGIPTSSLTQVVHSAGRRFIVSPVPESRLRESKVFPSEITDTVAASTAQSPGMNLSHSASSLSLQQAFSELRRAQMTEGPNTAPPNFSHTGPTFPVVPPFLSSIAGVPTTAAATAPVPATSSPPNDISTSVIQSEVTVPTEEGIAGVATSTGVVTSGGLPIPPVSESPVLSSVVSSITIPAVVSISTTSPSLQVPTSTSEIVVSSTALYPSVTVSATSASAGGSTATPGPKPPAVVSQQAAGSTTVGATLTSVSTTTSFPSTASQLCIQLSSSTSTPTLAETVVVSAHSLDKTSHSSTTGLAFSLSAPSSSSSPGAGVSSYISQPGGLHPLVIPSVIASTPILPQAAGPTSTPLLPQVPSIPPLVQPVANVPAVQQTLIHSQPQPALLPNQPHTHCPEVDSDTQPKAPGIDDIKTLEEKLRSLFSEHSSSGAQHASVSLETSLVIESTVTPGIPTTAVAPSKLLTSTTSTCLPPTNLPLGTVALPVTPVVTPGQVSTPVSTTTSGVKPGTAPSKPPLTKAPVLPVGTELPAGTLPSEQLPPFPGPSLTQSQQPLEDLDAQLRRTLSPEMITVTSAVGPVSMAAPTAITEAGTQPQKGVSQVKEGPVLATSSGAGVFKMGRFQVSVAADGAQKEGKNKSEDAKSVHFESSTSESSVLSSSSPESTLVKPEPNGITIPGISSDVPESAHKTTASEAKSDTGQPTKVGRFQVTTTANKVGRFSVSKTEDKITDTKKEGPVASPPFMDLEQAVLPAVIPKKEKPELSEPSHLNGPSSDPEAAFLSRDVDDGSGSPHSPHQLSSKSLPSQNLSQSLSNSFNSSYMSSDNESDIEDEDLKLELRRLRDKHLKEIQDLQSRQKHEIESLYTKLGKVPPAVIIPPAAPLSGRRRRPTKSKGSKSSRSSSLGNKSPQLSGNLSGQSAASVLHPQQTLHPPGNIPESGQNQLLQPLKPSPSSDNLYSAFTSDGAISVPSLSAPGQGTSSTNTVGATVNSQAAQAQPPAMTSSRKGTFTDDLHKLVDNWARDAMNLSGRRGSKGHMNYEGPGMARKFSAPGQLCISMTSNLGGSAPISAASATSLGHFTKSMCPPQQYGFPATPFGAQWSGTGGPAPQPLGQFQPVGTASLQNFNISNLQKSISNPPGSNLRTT
UniProt Q8IXJ6, sequence (whole entry, looked up): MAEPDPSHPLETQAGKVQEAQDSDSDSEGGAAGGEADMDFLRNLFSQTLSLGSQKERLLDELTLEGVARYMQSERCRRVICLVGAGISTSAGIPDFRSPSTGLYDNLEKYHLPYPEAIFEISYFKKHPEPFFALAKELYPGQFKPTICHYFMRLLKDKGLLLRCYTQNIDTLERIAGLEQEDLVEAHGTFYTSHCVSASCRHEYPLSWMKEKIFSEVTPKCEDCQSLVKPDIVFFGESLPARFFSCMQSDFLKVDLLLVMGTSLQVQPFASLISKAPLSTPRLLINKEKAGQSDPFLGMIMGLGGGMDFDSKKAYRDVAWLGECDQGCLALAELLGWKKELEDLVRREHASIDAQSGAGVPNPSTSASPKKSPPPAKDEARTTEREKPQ

SMILES | tested on | test | test system | conditions | how to read | endpoint | value
COc1c(CCC[P+](c2ccccc2)(c2ccccc2)c2ccccc2)cc2c(c1OC)OCO2.[I-] | U-251 | SRB | – | – | – | TGI | -4.71 log M
C[C@H]1CN(c2n[nH]c3nc(N[C@H]4CC[C@H](NS(=O)(=O)CCC(F)(F)F)CC4)ncc23)CCO1 | Serine/threonine-protein kinase WNK1 (WNK1, Homo sapiens, UniProt Q9H4A3) | inhibitor, Kinobeads competition profiling | – | 0.8 µM | relative to: vehicle | relative abundance | 1.11
COc1cc(CCC[P+](c2ccccc2)(c2ccccc2)c2ccccc2)c(OC)c2c1OCO2.[I-] | RXF 393 | SRB | – | – | – | TGI | -5.07 log M
CCCCCCCCCc1ccc(O)cc1 | human iPSC-derived cardiomyocytes | MyBP-C/MYH ratio, plate-normalised SD score | – | concentration not given, primary screen | direction not given | activity score | 8.8
Oc1ccc(C(c2ccc(O)cc2)(C(F)(F)F)C(F)(F)F)cc1 | HepG2 spheroids | Hoechst flow cytometry | – | 0.10 µM, 96 h | – | S phase cells | 11 ± 4.92%
Nc1ncnc2c1ncn2[C@@H]1O[C@@H]2COP(=O)(O)O[C@H]3[C@@H](O)[C@H](n4cnc5c(=O)[nH]cnc54)O[C@@H]3COP(=O)(O)O[C@H]2[C@H]1O | HFF-1 | RNA sequencing, measured: Reactome R-HSA-1971475 | – | downregulated pathway | relative to: Zika virus alone | pathway fold enrichment | 11
N.N.[Cl][Pt][Cl] | human foreskin fibroblasts CRL-4001 | viability, MTT | – | 72 h | – | EC50 | 26 ± 10.8 µM
CC[C@H](C)[C@H](NC(=O)[C@H](Cc1c[nH]c2ccccc12)NC(=O)[C@H](CO)NC(=O)[C@H](C)NC(=O)[C@H](CC(C)C)NC(=O)[C@H](C)NC(=O)[C@H](CC(C)C)NC(=O)[C@H](C)NC(=O)[C@H](CCC(=O)O)NC(=O)[C@H](C)NC(=O)[C@H](CCC(=O)O)NC(=O)[C@H](C)NC(=O)[C@H](CCC(=O)O)NC(=O)[C@H](C)NC(=O)[C@H](CC(C)C)NC(=O)[C@H](C)NC(=O)[C@H](CC(C)C)NC(=O)[C@H](Cc1c[nH]c2ccccc12)NC(=O)[C@H](Cc1c[nH]c2ccccc12)NC(=O)CN)C(=O)N[C@@H](CCCCN)C(=O)N[C@@H](CCCNC(=N)N)C(=O)N[C@@H](CCCCN)C(=O)N[C@@H](CCCNC(=N)N)C(=O)N[C@@H](CCC(N)=O)C(=O)N[C@@H](CCC(N)=O)C(=O)N[C@@H](CS)C(N)=O | human red blood cells | – | – | pH 7.4 | relative to: Triton X-100 | EC50 | > 100 µM
COc1ccc2c(c1)[nH]c1c(C)nccc12 | DU-145 | bisulfite pyrosequencing, measured: RASSF1A promoter CpG site 7 | – | 10 µM, 16 h | – | DNA methylation | 86.8%
CC[C@H](C)[C@@H]1NC(=O)[C@@H]2CCCN2C(=O)[C@H](CC(C)C)NC(=O)[C@H](CC(C)C)NC(=O)CNC(=O)[C@@H](NC(=O)[C@@H](NC(=O)[C@H](CC(=O)O)NC(=O)CNC(=O)[C@@H](NC(=O)[C@H](C)NC(=O)CNC(=O)[C@H](CCCCN)NC(=O)[C@H](CC(C)C)NC(=O)[C@H](CC(C)C)NC(=O)[C@H](CCCCN)NC(=O)CNC(=O)[C@@H](NC(=O)[C@@H](N)CC(C)C)C(C)C)C(C)C)C(C)C)CSSC[C@@H](C(=O)O)NC1=O | – | RNA-seq, measured: Fgd3 | mouse, traumatic brain injury model, frontal cortex and hippocampus | dose not given | relative to: TBI alone | log2 fold change | -1.58
C/C=C(/C)C(=O)O[C@H]1C(C)=C2[C@H]([C@@H]1OC(=O)CCCCCCC)[C@@](C)(OC(C)=O)C[C@H](OC(=O)CCC)[C@@]1(O)[C@H]2OC(=O)[C@@]1(C)O | HEK293T | RNA-seq, measured: SLC1A4 mRNA | – | 10 µM, 6 h | relative to: vehicle | log2 fold change | 2.65
CC[C@H](C)[C@H](NC(=O)[C@H](Cc1ccccc1)NC(=O)[C@H](CCC(=O)O)NC(=O)[C@H](CCCNC(=N)N)NC(=O)[C@H](C)NC(=O)[C@H](C)NC(=O)[C@H](CCC(N)=O)NC(=O)[C@H](CCC(=O)O)NC(=O)[C@H](CCC(=O)O)NC(=O)[C@H](CC(C)C)NC(=O)[C@H](Cc1ccc(O)cc1)NC(=O)[C@H](CO)NC(=O)[C@H](CO)NC(=O)[C@@H](NC(=O)[C@H](CC(=O)O)NC(=O)[C@H](CO)NC(=O)[C@@H](NC(=O)[C@H](Cc1ccccc1)NC(=O)[C@@H](NC(=O)CNC(=O)[C@H](CCC(=O)O)NC(=O)[C@H](C)NC(=O)CCc1c[nH]cn1)[C@@H](C)O)[C@@H](C)O)C(C)C)C(=O)N[C@@H](C)C(=O)N[C@@H](Cc1c[nH]c2ccccc12)C(=O)N[C@@H](CC(C)C)C(=O)N[C@H](C(=O)N[C@@H](CCCNC(=N)N)C(=O)NCC(=O)N[C@@H](CCCNC(=N)N)C(=O)N[C@@H](CCCCNC(=O)COCCOCCNC(=O)COCCOCCNC(=O)CC[C@H](NC(=O)CCCCCCCCCCCCCCCCC(=O)O)C(=O)O)C(=O)NCC(=O)NCC(=O)N[C@@H](CO)C(=O)N[C@@H](CCCCNc1c(NCCCCCN(O)C(=O)CCC(=O)NCCCCCN(O)C(=O)CCC(=O)NCCCCCN(O)C(C)=O)c(=O)c1=O)C(=O)O)C(C)C [zirconium-89 labelled] | – | gamma counting | rat, stomach-duodenum content | subcutaneous, 3 nmol/kg, 24 h | – | tissue uptake | 0.12 %ID/g
COc1cc2c(Oc3ccc4[nH]c(C)cc4c3F)ccnc2cc1OCC1(N)CC1 | – | – | paediatric recurrent refractory sarcoma | 8 mg | – | grade 3 blurred vision | 0%
Nc1nc(N)nc(NC2CC2)n1 | human iPSC-derived cardiomyocytes | MyBP-C/MYH ratio, plate-normalised SD score | – | concentration not given, primary screen | direction not given | activity score | 3.1
CC[C@H](C)[C@H](NC(=O)CN)C(=O)NCC(=O)N[C@@H](C)C(=O)N[C@H](C(=O)N[C@@H](CC(C)C)C(=O)N[C@@H](CCCCN)C(=O)N[C@H](C(=O)N[C@@H](CC(C)C)C(=O)N[C@@H](C)C(=O)N[C@H](C(=O)NCC(=O)N[C@@H](CC(C)C)C(=O)N1CCC[C@H]1C(=O)N[C@H](C(=O)N[C@@H](CC(C)C)C(=O)N[C@H](C(=O)N[C@@H](CO)C(=O)N[C@@H](Cc1c[nH]c2ccccc12)C(=O)N[C@H](C(=O)N[C@@H](CS)C(N)=O)[C@@H](C)CC)[C@@H](C)CC)[C@@H](C)O)[C@@H](C)O)C(C)C)[C@@H](C)CC | human red blood cells | – | – | pH 5.5 | relative to: Triton X-100 | EC50 | 16 µM
CO[C@H]1C[C@@H]2CC[C@@H](C)[C@@](O)(O2)C(=O)C(=O)N2CCCC[C@H]2C(=O)O[C@H]([C@H](C)C[C@@H]2CC[C@@H](OC(=O)NCCOCCOCCOCCOCCOCCOCCOCCOCCC(=O)N3CCc4cc(Cn5nc(-c6ccc7oc(N)nc7c6)c6c(N)ncnc65)ccc4C3)[C@H](OC)C2)C[C@@H](O)[C@H](C)/C=C(\C)[C@@H](O)[C@@H](OC)C(=O)[C@H](C)C[C@H](C)/C=C/C=C/C=C/1C | – | – | patients with advanced solid tumours | intravenous, dose not given, grade ≥3 | – | incidence of Fatigue TEAE | 3.5%
O=C1N(Cc2ccccc2Cl)c2ccccc2C12NN=C(c1ccccc1)S2 (stereo not drawn) | MDA-MB-468 | gene expression array, measured: NUCKS1 mRNA | – | 10 µM, 12 h | relative to: untreated, down | fold change | 1.85
CCC(=O)CCCCC[C@@H]1NC(=O)[C@H]2CCCCN2C(=O)[C@H]([C@@H](C)CC)NC(=O)[C@H](Cc2cn(OC)c3ccccc23)NC1=O | HBL-1 | – | – | 1 µM, 120 h | – | viability | 0.653%
Nc1ncc(-c2nc(N3CCOCC3)nc(N3CCOCC3)n2)c(C(F)F)n1 | RKO | – | – | 72 h | – | GI50 | 0.18 µM
CC[C@H](C)[C@H](NC(=O)[C@H](C)NC(=O)[C@H](CCCCN)NC(=O)[C@H](CC(C)C)NC(=O)[C@H](C)NC(=O)[C@@H](NC(=O)[C@H](Cc1c[nH]cn1)NC(=O)[C@H](CC(C)C)NC(=O)[C@@H](NC(=O)[C@@H](NC(=O)[C@H](CCCCN)NC(=O)[C@H](C)NC(=O)[C@H](C)NC(=O)[C@H](CO)NC(=O)[C@H](CCCCN)NC(=O)[C@H](Cc1ccccc1)NC(=O)[C@@H](NC(=O)[C@H](CCCCN)NC(=O)[C@H](CC(C)C)NC(=O)[C@H](Cc1ccccc1)NC(=O)[C@H](CO)NC(=O)[C@H](CCCCN)NC(=O)[C@H](Cc1c[nH]c2ccccc12)NC(=O)[C@H](CCCCN)NC(C)=O)[C@@H](C)O)[C@@H](C)O)C(C)C)[C@@H](C)O)C(=O)N[C@@H](CO)C(=O)N[C@@H](CO)C(N)=O | Pseudomonas aeruginosa | – | – | 43 strains | – | MBC90 | 32 µg/mL (≈ 10.9 µM)
COc1cc(Nc2ncc(F)c(Nc3ccc4c(n3)NC(=O)C(C)(C)O4)n2)cc(OC)c1OC | NAD-dependent protein deacetylase sirtuin-2 (SIRT2, Homo sapiens, UniProt Q8IXJ6) | – | – | – | – | IC50 | > 10 µM
O=C(c1ccc(Cl)cc1)N1CCN2C(=O)N(OC(=O)N3CCOc4ccccc43)C(=O)C2C1 (stereo not drawn) | Lysosomal phospholipase A and acyltransferase (PLA2G15, Homo sapiens, UniProt Q8NCC3) | enzyme activity, inhibitor, MS-based ABPP | SW-620 conditioned medium | 10 µM, 1 h, 37 °C | relative to: compound over DMSO, lower = stronger inhibition | median ratio | 1.09
CCN(CC)c1ccc(C=NNC(=O)CSc2nc3ccccc3c(=O)n2Cc2ccc(S(N)(=O)=O)cc2)c(O)c1 | NCI-H23 | NCI five-dose screen | – | – | – | CC50 | > 100 µM
CN1CCN(C2(CNC3CCN(c4cccc(-c5cc6cc(F)ccc6[nH]5)c4)CC3)CCC2)CC1 | LOX IMVI | – | – | – | – | GI50 | 0.3 µM

Some of these lines once more:
SMILES | tested on | test | test system | conditions | how to read | endpoint | value
CC[C@H](C)[C@H](NC(=O)[C@H](C)NC(=O)[C@H](CCCCN)NC(=O)[C@H](CC(C)C)NC(=O)[C@H](C)NC(=O)[C@@H](NC(=O)[C@H](Cc1c[nH]cn1)NC(=O)[C@H](CC(C)C)NC(=O)[C@@H](NC(=O)[C@@H](NC(=O)[C@H](CCCCN)NC(=O)[C@H](C)NC(=O)[C@H](C)NC(=O)[C@H](CO)NC(=O)[C@H](CCCCN)NC(=O)[C@H](Cc1ccccc1)NC(=O)[C@@H](NC(=O)[C@H](CCCCN)NC(=O)[C@H](CC(C)C)NC(=O)[C@H](Cc1ccccc1)NC(=O)[C@H](CO)NC(=O)[C@H](CCCCN)NC(=O)[C@H](Cc1c[nH]c2ccccc12)NC(=O)[C@H](CCCCN)NC(C)=O)[C@@H](C)O)[C@@H](C)O)C(C)C)[C@@H](C)O)C(=O)N[C@@H](CO)C(=O)N[C@@H](CO)C(N)=O | Pseudomonas aeruginosa | – | – | 43 strains | – | MBC90 | 32 µg/mL (≈ 10.9 µM)
CN1CCN(C2(CNC3CCN(c4cccc(-c5cc6cc(F)ccc6[nH]5)c4)CC3)CCC2)CC1 | LOX IMVI | – | – | – | – | GI50 | 0.3 µM
CCN(CC)c1ccc(C=NNC(=O)CSc2nc3ccccc3c(=O)n2Cc2ccc(S(N)(=O)=O)cc2)c(O)c1 | NCI-H23 | NCI five-dose screen | – | – | – | CC50 | > 100 µM
CC[C@H](C)[C@H](NC(=O)[C@H](Cc1c[nH]c2ccccc12)NC(=O)[C@H](CO)NC(=O)[C@H](C)NC(=O)[C@H](CC(C)C)NC(=O)[C@H](C)NC(=O)[C@H](CC(C)C)NC(=O)[C@H](C)NC(=O)[C@H](CCC(=O)O)NC(=O)[C@H](C)NC(=O)[C@H](CCC(=O)O)NC(=O)[C@H](C)NC(=O)[C@H](CCC(=O)O)NC(=O)[C@H](C)NC(=O)[C@H](CC(C)C)NC(=O)[C@H](C)NC(=O)[C@H](CC(C)C)NC(=O)[C@H](Cc1c[nH]c2ccccc12)NC(=O)[C@H](Cc1c[nH]c2ccccc12)NC(=O)CN)C(=O)N[C@@H](CCCCN)C(=O)N[C@@H](CCCNC(=N)N)C(=O)N[C@@H](CCCCN)C(=O)N[C@@H](CCCNC(=N)N)C(=O)N[C@@H](CCC(N)=O)C(=O)N[C@@H](CCC(N)=O)C(=O)N[C@@H](CS)C(N)=O | human red blood cells | – | – | pH 7.4 | relative to: Triton X-100 | EC50 | > 100 µM
